Assay results of several laboratories.
Each numbered part is a random draw from the data of one study; scales do not carry over between parts.

Block 1 — technique: universal PBM; form: double-stranded DNA, one strand shown; medium: in vitro; tested at: not given; direction: higher = stronger binding; measurement: E-score
Target: Sal-like protein 4, full length isoform B (SALL4, Homo sapiens, UniProt Q9UJQ4-2, residues 1-616)
Setting: 8-mer, flanks averaged, mean of replicates
AGGGTGAA: -0.0626
CAAACTGC: -0.129
ATTTACCA: 0.239
AGGAAGTG: -0.0931
CTAAACCC: 0.0251
ACCTTAAT: 0.203
CCGGTAGA: -0.0998
CACACCAG: -0.0497
ATCGGCTA: 0.0545
AAACTCGA: -0.0515
AAAAAGCT: 0.222
CCTAATAG: 0.0183
CACTTAAG: 0.124
AGTCCCGG: -0.383
GCGTGAGA: -0.108
GATCATGC: -0.113
AACACTAA: 0.175
CTGCGTGC: -0.253
AGTACGGC: -0.134
AAGTCCCG: -0.217
AATCCGAC: 0.0411
AACATTCT: 0.212
TAGGCCGA: -0.247
CGGAGAAA: -0.0845
GCACTGAA: 0.0162

Block 2 — technique: protein binding microarray; form: double-stranded DNA, one strand shown; medium: in vitro; tested at: not given; reference: not given; direction: higher = stronger binding; measurement: E-score
Target: Histone acetyltransferase KAT6A, both winged helices, GST fusion (KAT6A, Homo sapiens, UniProt Q92794, residues 1-181)
Setting: 8-mer, flanks averaged, mean of 2 arrays, mostly near background
Residues (chain): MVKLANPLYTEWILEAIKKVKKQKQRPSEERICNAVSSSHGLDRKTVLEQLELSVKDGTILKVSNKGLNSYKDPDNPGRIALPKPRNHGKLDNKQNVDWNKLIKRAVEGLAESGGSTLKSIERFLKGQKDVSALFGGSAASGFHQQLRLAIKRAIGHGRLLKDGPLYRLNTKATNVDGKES
CGGGGGCC: 0.151
TAAAAAGA: -0.142
CCCGTTCG: 0.182
AAACTATG: -0.152
CCGCCCGA: 0.232
ATATATAT: 0.0876
CACTTATA: -0.0235
AACAGAGA: -0.161
ATGTGAAC: -0.00762
CTGAGGGC: -0.112
CCTATTCC: -0.0861
CTTACAGA: -0.0647
CCGTACGG: 0.384
CTCTGTGC: -0.0486
AGACGATC: -0.0344
GATGGCCC: -0.103
ACGCTTGC: 0.122
ATAGTGGC: -0.0248
CTGTGTGA: -0.119

Block 3 — technique: RNA Bind-n-Seq; form: RNA; medium: in vitro; tested at: 365 nM; reference: no-protein control; direction: higher = stronger binding; measurement: RBNS enrichment (R)
Target: RNA binding protein fox-1 homolog 2, RRM domain, GST-SBP tag (RBFOX2, Homo sapiens, UniProt O43251-10, residues 100-194)
Setting: natural RNA segment, single round, ends assumed
Constant ends, left off below: GGGAGUUCUACAGUCCGACGAUC … UGGAAUUCUCGGGUGCCAA
Construct (chain): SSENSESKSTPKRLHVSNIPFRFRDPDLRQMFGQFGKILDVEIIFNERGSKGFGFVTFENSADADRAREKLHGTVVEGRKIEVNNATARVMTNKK
AGGGAGAGGCUGUGGUGGCUGUCUCUGUCCCUCACUGCCUUCCAGGAGCAAUUUGCACAUGUAACAUAGAUUUAUGUAAUGCUUUAUGUUUAAAAACAUUCCCCAAUUAU: 1.2
CAAGUUGUGGCUUAUUUUCCUGUUCCCUAAACCGAUCCCUAUUCCAUCAACAUGGCACCCUGCCUCAUUGGCUAAGUGUUAAGUGAUGGGCUUAUUCUUGAAAGCAGCUU: 0.347
GUUUUAGCUGUGCAUGUCAUAUCCACAAAGACUUUUAGCAGGUGAACUGUUCCAAGACUGACACAAGGAUGUUUCAAACUUGCCUCUGUCUGUAGAAAAUGUUAAAAAUA: 2.83
UUAGUCAACAGAAACUAUUUUAGGGUAUGUUUAGUUGGUAAAUGCUUCAUGUUCAUGGAUGACACAAUGUUUUUGCAAAAAAACCCUGAAACUAUUCUUUGGCAUUGGUG: 0.478
UGUUAAGACAACUCUUGUGUACGCUAUGUUGAAGCUCAACAAAAAAGUCAUGGGACCACUUCUAGAAAUCUUUCAGCUGUCAGGCCUGUCAGUCUCAUGACAGUUUGUUG: 0.345
UCCUCAUGGGGCAGACGUGAUUGGCUCACAGUUGAAGUCAAAUCACUGCUUGGGCUGCUUGUAGCGGAAUCCUUGGAAAACAGUUGUUGAGGGCCUUGACAGAUCGGGCC: 2.56
AACCAUUUCCUCUAUGUCCUGAGCUGGGACCUGCUGUCCUAAUGCUAAGGAUGAGGGCUGUCAAACAGAAAAUGCUGAAGACUUUACAGCUGUGGGGUCCAAAACCCUAA: 0.275
CUAGCUAGCCUGGCUCAGUGAGCUGAUUAGCGUAUGGCAGGGGGCCUAGGAAGUACAGAGCAUCCUGCCUGUGCCUUGGAGCCUGUGCACUGCUUUUGUAUGUGAUCUUG: 0.788
UGCCAAACUUGGUGUGGCCAGGAAAGGGCAGUCCUGAGGGAGAAGACAGGAUUCAGGGCAGUGCUCCGAAGCUGUGUGCUCACCUGGUUGGCUCAUCAAACCUGGCAACC: 0.264
GUGUCCAUCAUCAGGGGAAGAUCAAACACAGGUGCACUCAGCUGCCCAGGGCCUCUGGGACACUUGCCUUGACUUGCAACUUGCCUUGAACAUCACGAUCAAAGCAGCAG: 0.235
CCCAUGUUUAAGAUUUUUCAUCACUAACAUAUCCAUUAAAAGUAUCAACUGGCCAGGCAGGGUGGCUCACGCCUGUACUCCCAGCAUUUUGUGAGGCCAAGGUGGGUGGA: 3.04
AACCUUGACUUCUGAUUCUUGGGGGGGGAAAAGGUCCCUGGAUGCAAGUACACACUUCCACGGAAUCAUACAUUGGUUCAUCUUCUGAGAGCGCACAAUAGCUACUGAAC: 0.513

Block 4 — technique: RNA Bind-n-Seq; form: RNA; medium: in vitro; tested at: 200 nM; setting: whole 134-nt RNA, ends assumed; together with: 150 mM KCl; reference: input library; direction: higher = stronger binding; measurement: log2 enrichment
Target: Ras GTPase-activating protein-binding protein 1, full length (G3BP1, Homo sapiens, UniProt Q13283)
UniProt Q13283, sequence (whole entry, looked up): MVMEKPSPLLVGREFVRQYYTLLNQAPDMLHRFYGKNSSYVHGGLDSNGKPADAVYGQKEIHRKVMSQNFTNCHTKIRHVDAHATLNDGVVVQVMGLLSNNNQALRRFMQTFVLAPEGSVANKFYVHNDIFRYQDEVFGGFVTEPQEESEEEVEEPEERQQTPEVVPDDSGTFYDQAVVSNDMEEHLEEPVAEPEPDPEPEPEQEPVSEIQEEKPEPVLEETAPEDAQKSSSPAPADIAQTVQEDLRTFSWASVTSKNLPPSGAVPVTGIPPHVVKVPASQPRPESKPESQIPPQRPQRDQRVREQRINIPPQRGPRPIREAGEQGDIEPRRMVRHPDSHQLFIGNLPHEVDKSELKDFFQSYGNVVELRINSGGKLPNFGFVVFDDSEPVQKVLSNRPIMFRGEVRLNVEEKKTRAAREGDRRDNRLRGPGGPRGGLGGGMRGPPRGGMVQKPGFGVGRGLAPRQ
Constant ends, left off below: GGGAGUUCUACAGUCCGACGAUC … UGGAAUUCUCGGGUGUCAAGG
AGUCCUGUGCUACACAUCGUAUGUACCGAAUCGGGUUUUUGGGAAAGGGAAAAAGGGAAAGUAUUAUGUUACGCCGUUCGGAUCUGCACU: -0.51
GUCCUGUGCUACACAUCGUAUGUACCGAAUCGGAAAAAAGGGGAAAAAAGGAAAAAAGGAAAGUAUUAUGUUACGCCGUUCGGAUCUGCA: -0.761
GCAGGAAGUAAAAACAAAUGGAAAAGCUUCGGAUAGUGGCAGGGGUGGGGGUUGCUAAGGAAAGGGUGGGAUGGGAGUGGGUAAAGAGUU: 0.977
GCGGACCGAGAAAGUCGUUACGAGGAAGAAGAAGAACAAAGUCGAAGUAUGAGCCGGAAGAGGAAGGCAUCUGUGCACAGUUCGGGCCGU: 0.515
UUCCCAAGAUGGCGGCGGACGUGUCCGUUACUCACCGGCCCCCGCUGAGCCCUAAGUCUGGGGCCGAAGUCGAAGCCGGCGAUGCCGCGG: -2.4
ACCAUGCAGGUGGGCAUCUUUGGGAAGUGGGGCAAGGGGGGGAUAGGGAGGGGGGUAACACUUUGGGAACAGGUGGUCCCACGUCGUUUC: 1.16
ACCAUGCAGGUGGGCAUAUUUGGGAAGUGGGGCAAGGGGGGGAUAGGGAGGGGGGUAACACUUUGGGAACAGGUGGUCCCAGGUCGUUUC: 1.36
UAACUUUAGAGGAGGAUCUGAUGGAUAUGGCAGUGGACGUGGAUUUGGGGAUGGCUAUAAUGGGUAUGGACGAGGACCUGGAGGUGGCAA: 0.214
GCAGGAAGUAAAAACAAAUGGAAAUGCUUCGGAUAAAAGCAGGGGUGGGGGUUGCUAAGGAAAGGGUGGGAUGGGAGUGGGUAAAGAGUU: 1.02
ACCAUGCAGGUGGGCAUCUUUGGGAAGUGGGGCAAGGGGGGGAUAGGGAGGGGGGUAACACUUUGGGAACCGGUGGUCCCAGGUCGUUUC: 0.806
UCAAGUCCUGUGCUACACAUCGUAUGUACCGAAUCGGUUUUUGGAAAAAGGAGGAAAGUAUUAUGUUACGCCGUUCGGAUCUGCACUUCC: -0.683
CUCAAGUCCUGUGCUACACAUCGUAUGUACCGAAUCGGAAAGGAAAGGUUUGGAAAGUAUUAUGUUACGCCGUUCGGAUCUGCACUUCCA: -0.787
UCCUGUGCUACACAUCGUAUGUACCGAAUCGGGGUUUUUUGGUUUUUUGGUUUUUUGGGGAAAGUAUUAUGUUACGCCGUUCGGAUCUGC: -0.534
CAAGUCCUGUGCUACACAUCGUAUGUACCGAAUCGGGGUUGGGGUUGGGGUUGGGGAAAGUAUUAUGUUACGCCGUUCGGAUCUGCACUU: 0.766

Block 5 — technique: protein-binding microarray; form: double-stranded DNA, one strand shown; medium: in vitro; tested at: 2200 nM top; setting: 60-bp whole probe; together with: salmon DNA 0.4 mg/ml; reference: random background probes; direction: higher = stronger binding; measurement: fitted relative affinity; constant ends, left off below: GCCTAGCAC … GTCTTGATTCGCTTGACGCTGCTG
Target: Interferon regulatory factor 7, full length, phosphomimetic (IRF7, Homo sapiens, UniProt Q92985, residues 1-503, S471D/S472D/S475D/S476D/S477D/S483D/S484D/S487D)
UniProt Q92985, sequence (whole entry, unmodified, looked up): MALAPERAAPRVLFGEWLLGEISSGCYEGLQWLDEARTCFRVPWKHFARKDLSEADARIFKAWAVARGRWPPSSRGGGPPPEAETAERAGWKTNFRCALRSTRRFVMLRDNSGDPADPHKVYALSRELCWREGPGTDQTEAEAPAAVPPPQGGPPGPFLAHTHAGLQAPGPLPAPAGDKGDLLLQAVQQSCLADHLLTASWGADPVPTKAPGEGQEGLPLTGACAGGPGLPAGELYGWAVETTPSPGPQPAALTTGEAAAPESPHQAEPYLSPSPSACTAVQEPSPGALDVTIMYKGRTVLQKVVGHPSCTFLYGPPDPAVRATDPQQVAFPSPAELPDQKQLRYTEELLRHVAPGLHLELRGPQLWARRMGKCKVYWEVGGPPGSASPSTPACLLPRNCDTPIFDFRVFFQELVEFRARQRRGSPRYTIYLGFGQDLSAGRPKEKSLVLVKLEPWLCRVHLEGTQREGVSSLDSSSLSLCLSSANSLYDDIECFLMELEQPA
TCATTTTTATCAAATGTGACTGTGCTA: 0.591 z-score
TGAGGACTGGACTTTCGGTTAGTGCTA: 4.71 z-score
CCCAGTCTCATATTTATTAGGTGCTAG: 0.814 z-score
TTCACTTTAACTTATTCTCTAGTGCTA: 1.17 z-score
TTAGGTCTCGGTCTGGGTTAGTGCTAG: 0.372 z-score
TTAGGTTTCGGGTTCGGTTAGTGCTAG: 9.66 z-score
GACGATCTCAGACTGGAGTCGTGCTAG: 0.174 z-score
TTAGGACTGGACTATCGATTAGTGCTA: -0.284 z-score
GACGGTATCGACTTTCGTGACGTGCTA: 1.89 z-score
TCAGTTGTGATTCTTTCACTGTGCTAG: 1.52 z-score
ATGGGTATGGCCTATTTATATGTGCTA: -0.178 z-score
TAATATATATATTGTTAGTGTGTGCTA: 0.0652 z-score
TTAGGTCTCGGTTCCGGTTAGTGCTAG: 1.76 z-score
CTTTTATTTTTTTTATTTATGTGCTAG: 1.64 z-score
GACGGTATCGGGCATCGGGACGTGCTA: -0.607 z-score
TCATCTGTCATGTTTGTCACTGTGCTA: 1.54 z-score
GACGGAATCGGGACTGGGGACGTGCTA: -0.446 z-score
GACGGACTGCTTCTCCGGACGTGCTAG: 0.243 z-score

Repeated from above (block 3):
AGGGAGAGGCUGUGGUGGCUGUCUCUGUCCCUCACUGCCUUCCAGGAGCAAUUUGCACAUGUAACAUAGAUUUAUGUAAUGCUUUAUGUUUAAAAACAUUCCCCAAUUAU: 1.2
CAAGUUGUGGCUUAUUUUCCUGUUCCCUAAACCGAUCCCUAUUCCAUCAACAUGGCACCCUGCCUCAUUGGCUAAGUGUUAAGUGAUGGGCUUAUUCUUGAAAGCAGCUU: 0.347
GUUUUAGCUGUGCAUGUCAUAUCCACAAAGACUUUUAGCAGGUGAACUGUUCCAAGACUGACACAAGGAUGUUUCAAACUUGCCUCUGUCUGUAGAAAAUGUUAAAAAUA: 2.83
UUAGUCAACAGAAACUAUUUUAGGGUAUGUUUAGUUGGUAAAUGCUUCAUGUUCAUGGAUGACACAAUGUUUUUGCAAAAAAACCCUGAAACUAUUCUUUGGCAUUGGUG: 0.478
UGUUAAGACAACUCUUGUGUACGCUAUGUUGAAGCUCAACAAAAAAGUCAUGGGACCACUUCUAGAAAUCUUUCAGCUGUCAGGCCUGUCAGUCUCAUGACAGUUUGUUG: 0.345
UCCUCAUGGGGCAGACGUGAUUGGCUCACAGUUGAAGUCAAAUCACUGCUUGGGCUGCUUGUAGCGGAAUCCUUGGAAAACAGUUGUUGAGGGCCUUGACAGAUCGGGCC: 2.56
AACCAUUUCCUCUAUGUCCUGAGCUGGGACCUGCUGUCCUAAUGCUAAGGAUGAGGGCUGUCAAACAGAAAAUGCUGAAGACUUUACAGCUGUGGGGUCCAAAACCCUAA: 0.275
